Assay results pooled from the literature.
Numbered parts are unrelated; each lists some results of a single study. Positions count from the first letter of the parent shown.

Set 1
Target: CCNE2, cyclin fold, Cln2 fusion (human)
Technique: yeast growth competition, sequencing
Matrix: yeast
Notes: strong parent motif
Relative to: not given
Direction: higher = stronger binding
Parent: CDC25A docking peptide (human); PPHRRRLLFACSP; partner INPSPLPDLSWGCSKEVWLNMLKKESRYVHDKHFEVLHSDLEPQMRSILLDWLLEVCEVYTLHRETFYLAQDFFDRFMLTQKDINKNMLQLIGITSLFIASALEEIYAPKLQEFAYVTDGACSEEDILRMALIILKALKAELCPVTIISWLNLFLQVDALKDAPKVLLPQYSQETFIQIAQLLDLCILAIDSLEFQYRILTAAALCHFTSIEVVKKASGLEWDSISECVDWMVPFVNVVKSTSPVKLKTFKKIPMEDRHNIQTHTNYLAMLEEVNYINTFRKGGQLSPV
Substitution	normalised enrichment score
P13S	2.34
P2D	0.889
R5A R6A L7A L8A	-0.0165
C11T	2.09
L8I	3.25
R6P	-0.436
P2R	2.17
L7P	0.179
L7S	0.445

Set 2
Target: ABI1, truncated, D143A, DHFR fusion (Arabidopsis thaliana)
Technique: DHFR PCA, deep sequencing
Matrix: yeast
Notes: methotrexate growth selection, single substitutions
Together with: (+)-ABA 0 µM
Relative to: wild-type fitted maximum
Direction: higher = stronger binding
Parent: PYL1, truncated, DHFR fusion (Arabidopsis thaliana); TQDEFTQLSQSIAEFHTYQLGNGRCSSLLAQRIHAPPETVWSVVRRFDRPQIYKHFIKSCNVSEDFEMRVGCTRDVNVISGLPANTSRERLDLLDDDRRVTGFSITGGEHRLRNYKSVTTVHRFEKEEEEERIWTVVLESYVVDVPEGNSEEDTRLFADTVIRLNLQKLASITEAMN; partner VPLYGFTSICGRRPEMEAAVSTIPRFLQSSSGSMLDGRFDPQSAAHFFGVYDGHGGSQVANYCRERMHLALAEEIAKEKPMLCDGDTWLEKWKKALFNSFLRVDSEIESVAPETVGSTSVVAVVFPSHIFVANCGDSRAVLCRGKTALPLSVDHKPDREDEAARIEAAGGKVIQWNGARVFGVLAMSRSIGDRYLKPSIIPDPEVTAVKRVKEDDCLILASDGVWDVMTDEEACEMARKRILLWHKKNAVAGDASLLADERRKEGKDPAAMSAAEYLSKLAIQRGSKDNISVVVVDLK
Substitution	relative binding score
L91E	3.25%
F157R	11%
C25M	5.08%
N61G	7.74%
F124K	6.7%
G108V	-3.62%
V142S	7.19%
R113W	2.72%
S104Y	-3.24%
D92G	1.63%
T119K	1.56%
A30S	24.1%

Set 3
Target: Histone acetyltransferase KAT6A, winged helix 1, GST fusion (KAT6A, Homo sapiens, UniProt Q92794, residues 1-85)
Technique: protein binding microarray
Molecule type: double-stranded DNA, one strand shown
Matrix: in vitro
Concentration: not given
Notes: 8-mer, flanks averaged, mean of 2 arrays, mostly near background
Relative to: not given
Direction: higher = stronger binding
Construct (chain): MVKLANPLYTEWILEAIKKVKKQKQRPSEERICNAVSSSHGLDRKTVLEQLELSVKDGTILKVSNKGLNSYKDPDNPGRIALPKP
Sequence	E-score
ACACATTA	-0.169
ACACTTAT	-0.171
GGGTTAGA	0.0424
GTATAAGA	-0.0944
GAACTTTA	-0.105
AGAAGACT	-0.151
TGGGGTAA	-0.162
TAGCCCCA	-0.178
CGCGTGAA	0.274
ACACGAGA	-0.115
CAGGAGGA	-0.228
ACGGATGC	0.205
GTTAGCGA	0.0129
CCCAGCGC	0.23

Other studies, line by line
Substance	target	assay	system	conditions	scale	measurement	value
PhoQ, residues 284 288 289 292 302 303 QWQEDG	PhoP, residues 12 14 15 18 19 QYCSL (Escherichia coli, UniProt P23836)	Sort-seq, measured: YFP reporter	E. coli	PhoQ-PhoP variant library, together with: 10 µM Mg2+	relative to: high Mg2+ state, higher = stronger signaling	fold induction	0.752

Some of these lines once more (set 3):
Sequence	E-score
ACGGATGC	0.205
GTTAGCGA	0.0129
